Experimental data from different studies.
Each line is one published result; not all experiments were run side by side. “And” joins repeats or separate records; there may be more than shown. ± marks the error that the study gave.

For `CSCC[C@@H]1NC(=O)[C@H](CC(=O)O)NC(=O)CNC(=O)[C@H](CCCNC(=N)N)NC(=O)[C@H](C)NC(=O)[C@H](CCC(=O)O)NC(=O)[C@H](CCCNC(=N)N)NC(=O)[C@@H]2CSSC[C@@H]3NC(=O)[C@H](CO)NC(=O)[C@H]([C@@H](C)O)NC(=O)[C@@H]4CCCN4C(=O)[C@H](C)NC(=O)[C@H](Cc4c[nH]c5ccccc45)NC(=O)[C@H](CC(=O)O)NC(=O)CNC(=O)[C@H](CCCNC(=N)N)NC(=O)CNC(=O)[C@H](CCC(N)=O)NC(=O)[C@@H]4CCCN4C(=O)[C@@H](NC(=O)CNC(=O)C(C)F)CSSC[C@H](NC(=O)CNC(=O)[C@H](C)NC(=O)[C@H](CC(C)C)NC(=O)[C@H](CSSC[C@@H](C(=O)NCC(N)=O)NC(=O)[C@H]([C@@H](C)O)NC(=O)[C@H](CCCNC(=N)N)NC(=O)[C@@H]4CCCN4C1=O)NC(=O)[C@H](CC(=O)O)NC(=O)[C@H](CO)NC(=O)[C@H](CC(=O)O)NC(=O)[C@H](CCC(N)=O)NC(=O)[C@H](CO)NC3=O)C(=O)N[C@@H](C(C)C)C(=O)N2` (stereo partly shown) [fluorine-18 labelled], the tissue uptake was 0.21 ± 0.08 %ID/g (nude mice U-87 MG xenograft, pancreas; intravenous, 2.5 h).
`CN[C@@](C)(C[18F])C(=O)O` has a tracer uptake of 1.9 %ID/g (MDA-MB-468 tumour model; host not given, bone; 30 min, tumour-bearing).
`Cc1ncc2n1-c1ccc(Cl)cc1C(c1ccccc1F)=NC2` gave a Papp of over 10 ×10⁻⁶ cm/s (Caco-2 clone P27.7; 3 µM, pH 7.4, with or without 25% cranberry juice; apical to basolateral).
With `Cc1ccc(-n2nc(C)c3c(-c4ccc(O)c(O)c4)c(C#N)c(N)nc32)cc1C` the CC50 was 39.3 µM and 39 µM (MDCK).
Under “minimum cytotoxic concentration”, `CCC(CC)O[C@@H]1C=C(C(=O)O)C[C@H](N)[C@H]1NC(C)=O` is recorded as over 100 µM (MDCK; cell morphology).
`[123I]c1cncc(OC[C@@H]2CCN2)c1` gave a tissue/plasma ratio of 18.3 (SPECT; human, brain cortex; intravenous bolus, 8.6 mCi; baseline: plasma).
`CO[C@H]1/C=C/O[C@@]2(C)Oc3c(C)c(O)c4c(O)c(c(/C=N/N5CCN(C6CCCC6)CC5)c(O)c4c3C2=O)NC(=O)/C(C)=C\C=C\[C@H](C)[C@H](O)[C@@H](C)[C@@H](O)[C@@H](C)[C@H](OC(C)=O)[C@@H]1C` gave a viability of under 60% (mouse cells; 50 µg/mL, 24 h).
The Papp of `CN1CC[C@]23c4c5ccc(O)c4O[C@H]2[C@@H](O[C@@H]2O[C@H](C(=O)O)[C@@H](O)[C@H](O)[C@H]2O)C=C[C@H]3[C@H]1C5` is reported as 2.01 ± 0.06 ×10⁻⁶ cm/s (MDCK II; 1.0 µg/mL, 100 min, DMEM buffer).
For `C[C@H]1CNCCc2ccc(Cl)cc21`, the AUC(0-inf) was 52.8 ± 2.84 ng·h/mL (male Sprague-Dawley rat, plasma; subcutaneous, pimavanserin 1 + lorcaserin 1 mg/kg, pimavanserin 15 min earlier).
With `CNC(C)Cc1ccc2c(c1)OCO2` (racemic) the mood rating was 6.4 (visual analog scale, item: Dizzy; human; oral, 0.75 mg/kg, mean over session, unit not given; baseline: pre-dose baseline).
With `COc1cc(-c2c(C#N)c(N)nc3c2c(C)nn3-c2ccc(F)cc2)ccc1O` the CC50 was 45.8 µM and 48.3 µM (MDCK).
The CC50 of `CCCCOc1ccc(Nc2cn(C3C=CC(O)C3)c(=O)n(CCCn3c(=O)c(C)cn(C4CC(N=[N+]=[N-])C(CO)O4)c3=O)c2=O)cc1` (stereo not shown) is reported as 47 µM (MT4; cell growth or viability).
Under “minimum cytotoxic concentration”, `CC(N)C12CC3CC(CC(C3)C1)C2` (stereo not shown) is recorded as at least 500 µM (MDCK; microscopy, altered cell morphology).
`CC(N)C12CC3CC(CC(C3)C1)C2` (stereo not shown): “minimum cytotoxic concentration” over 500 µM (MDCK; cell morphology).
The CC50 of `CCCCCCCCCCc1cn(Cc2cn([C@H]3C[C@H](O)[C@@H](COC(=O)OC[C@H]4O[C@@H](n5cc(C)c(=O)[nH]c5=O)C[C@@H]4N=[N+]=[N-])O3)c(=O)[nH]c2=O)nn1` is reported as 89.9 µM (MT4; cell growth or viability).
For `CC(=O)N[C@H]1[C@H]([C@H](O)[C@H](O)CO)OC(C(=O)O)=C[C@@H]1N=C(N)N`, “minimum cytotoxic concentration” read over 100 µM (MDCK; microscopy, altered cell morphology).
